Published values from different studies.
Protocols differ between the studies behind these lines. ± marks the error that the study gave.

SMILES = CCn1cc(-c2cc(Cn3ccnc3)cc3c2CCN([C@H](c2cc(OC)ccn2)C2CC2)C3=O)c(C(F)(F)F)n1; cell line = HT115; assay = cell growth, inhibitor; setting = 120 h; EC50 = 0.211 µM
SMILES = C=C(NC(=O)C(=C)NC(=O)c1csc(C2=N[C@@H]3c4csc(n4)[C@H]4NC(=O)c5csc(n5)[C@H]([C@](C)(O)[C@@H](C)O)NC(=O)[C@H]5CSC(=N5)/C(=C/C)NC(=O)[C@H]([C@@H](C)O)NC(=O)c5csc(n5)[C@]3(CC2)NC(=O)[C@H](C)NC(=O)C(=C)NC(=O)[C@H](C)NC(=O)[C@H]([C@@H](C)CC)N[C@@H]2C=Cc3c([C@H](C)O)cc(nc3[C@H]2O)C(=O)O[C@@H]4C)n1)C(N)=O; cell line = SCC-61; assay = cell viability; EC50 = 0.9 µM
SMILES = CCN(N=Cc1ccc(Br)cc1)C(=O)C1CC(=O)N(c2ccc(F)cc2F)C1 (stereo not shown); cell line = A-375; assay = cell viability, MTT; setting = 72 h; EC50 = 36.6 ± 4 µM
SMILES = CC(=O)O[C@H]1C(=O)[C@@]2(C)[C@H]([C@H](OC(=O)c3ccccc3)[C@]3(O)C[C@H](OC(=O)[C@H](O)[C@@H](NC(=O)c4ccccc4)c4ccccc4)C(C)=C1C3(C)C)[C@]1(OC(C)=O)CO[C@@H]1C[C@@H]2O; cell line = SKGT4; setting = 120 h; EC50 = 0.00569 µM
SMILES = CCn1cc(-c2cc(Cn3ccoc3=N)cc3c2CCN([C@@H](C)c2cc(OC)ccn2)C3=O)c(C(F)(F)F)n1; cell line = HGC-27; assay = cell growth, inhibitor; setting = 120 h; EC50 = > 30 µM
SMILES = Cc1ccc(-c2nc3ccccc3o2)cc1NC(=O)c1cc([N+](=O)[O-])c(F)cc1Cl; cell line = BJ fibroblasts; assay = cell growth, CellTiter-Glo; setting = 72 h; EC50 = > 16 µM
SMILES = C=CCNC1=C2C[C@@H](C)C[C@H](OC)[C@H](O)[C@@H](C)/C=C(\C)[C@H](OC(N)=O)[C@@H](OC)/C=C\C=C(/C)C(=O)NC(=CC1=O)C2=O; cell line = MYBPC3 iPSC-cardiomyocytes; assay = MYH level; setting = 24 h; EC50 = 36.8 µM
SMILES = Cc1ccc(-c2nc3ccccc3s2)cc1NC(=O)c1cc([N+](=O)[O-])c(NCCN(C)C)cc1Cl; cell line = BJ fibroblasts; assay = cell growth, CellTiter-Glo; setting = 72 h; EC50 = > 17.2 µM
SMILES = COCC(=O)N1CCC[C@H](C(=O)NCc2nc(-c3ccc(-c4ccccc4)cc3)cs2)C1; cell line = Jurkat; assay = cytotoxicity; EC50 = 5.7 µM
SMILES = c1ccc(COc2ccc(Nc3ccc4ncc(OCC5CCNCC5)nc4c3)cc2)cc1; cell line = Jurkat; assay = cell growth, XTT; setting = 7 days; EC50 = 2.3 ± 0.17 µM
SMILES = S=C(NCc1ccc2c(c1)OCO2)N1CCN(c2ncnc3c2oc2ccccc23)CC1; cell line = iPSC-derived maturing neurons; assay = CellTiter-Blue metabolic; setting = 24 h, 4-week maturation; EC50 = 2.5 µM
SMILES = COc1cnc2cccc(N3CCc4c(cc(Cn5ccnc5C)cc4-c4cn(C)nc4C(F)(F)F)C3=O)c2c1; cell line = RKO; assay = cell growth, inhibitor; setting = 120 h; EC50 = 9.26 µM
SMILES = O=C(Nc1cncc(-c2nc3ccccc3o2)c1)c1ccc(N2CCNCC2)c([N+](=O)[O-])c1; cell line = BJ fibroblasts; assay = cell growth, CellTiter-Glo; setting = 72 h; EC50 = > 20.1 µM

For quick reference, copied from above:
SMILES = COc1cnc2cccc(N3CCc4c(cc(Cn5ccnc5C)cc4-c4cn(C)nc4C(F)(F)F)C3=O)c2c1; cell line = RKO; assay = cell growth, inhibitor; setting = 120 h; EC50 = 9.26 µM
SMILES = O=C(Nc1cncc(-c2nc3ccccc3o2)c1)c1ccc(N2CCNCC2)c([N+](=O)[O-])c1; cell line = BJ fibroblasts; assay = cell growth, CellTiter-Glo; setting = 72 h; EC50 = > 20.1 µM
